# Published values pooled from the literature.
# Numbers after ± are the reported error.
Structure (SMILES),system,conditions,tissue uptake
N#C[C@@H]1CC(F)(F)CN1C(=O)CNC(=O)c1ccnc2c(NC(=O)CCOCCOCCOCCOCCOCCOCCNC(=O)[C@H](CCCCNC(=O)CN3CCN(CC(=O)[O-])CCN(CC(=O)[O-])CCN(CC(=O)[O-])CC3)NC(=O)CCCc3ccc(I)cc3)cccc12.[177Lu+3],"mouse, U-87 MG tumour xenograft, lung",48 h,0.49 ± 3.6 %ID/g
Cc1cc(C)n(CCN(CCN)CCCCCCNC(=O)[C@@H](N)Cc2c[nH]cn2)n1.[99Tc+].[C-]#[O+].[C-]#[O+].[C-]#[O+],"BALB/c nude mice, A549 xenograft, brain","intravenous, 24 h",0.03 ± 0.01 %IA/g
COc1cccc(OC)c1-c1cc(C(=O)NC2(C(=O)O)C3CC4CC(C3)CC2C4)nn1-c1ccc(C(=O)N(C)CCCN(C)CCCN(C)C(=O)[C@H](CCCCNC(=O)[C@H](CC(C)C)NC(=O)C2OC2C(=O)O)NC(=O)CN2CCN(CC(=O)[O-])CCN(CC(=O)[O-])CCN(CC(=O)[O-])CC2)cc1C(C)C.[177Lu+3] (mixture of isomers),"mouse HT-29 xenograft, small intestine","168 h post injection, biodistribution",0.156 %ID/g
CCCC[C@H](NC(=O)CCCCCCCNC(=O)CN1CCN(CC(=O)O)CCN(CC(=O)O)CC1)C(=O)N[C@H]1CC(=O)NCCCC[C@@H](C(N)=O)NC(=O)[C@H](Cc2c[nH]c3ccccc23)NC(=O)[C@H](CCCNC(=N)N)NC(=O)[C@@H](Cc2ccccc2)NC(=O)[C@H](Cc2c[nH]cn2)NC1=O [fluorine-18 labelled],"C57 mice B16-F10 melanoma, heart","intravenous, 0.37 MBq, 2 h",0.45 ± 0.05 %ID/g
CCCC[C@H](NC(=O)CNC(=O)CNC(=O)[C@H](CCCCNC(=O)[C@H](CC(=O)O)NC(=O)C(C)c1ccc(CC(C)C)cc1)NC(=O)CN1CCN(CC(=O)O)CCN(CC(=O)O)CCN(CC(=O)O)CC1)C(=O)N[C@H]1CC(=O)NCCCC[C@@H](C(N)=O)NC(=O)[C@H](Cc2c[nH]c3ccccc23)NC(=O)[C@H](CCCNC(=N)N)NC(=O)[C@@H](Cc2ccccc2)NC(=O)[C@H](Cc2c[nH]cn2)NC1=O (some centres unmarked) [lutetium-177 labelled],"C57 mouse, stomach","intravenous, 2 h, added: 10 µg NDP-MSH co-injection",1.16 ± 0.23 %ID/g
N#C[C@@H]1CCCN1C(=O)CNC(=O)c1ccnc2ccc(OCCCN3CCN(C(=O)CCc4ccc5c(c4)CN4CCN(Cc6cc(CCC(=O)O)ccc6O)CC(=O)[O][Al-]([18F])([O]C(=O)C4)[O]5)CC3)cc12 (some centres unmarked),"BALB/c nude mice, U-87 MG xenograft, liver","1 h, blocking, added: DOTA-FAPI-04 40 nmol/mouse co-injected",0.94 ± 0.59 %ID/g
COc1cccc(OC)c1-c1cc(C(=O)NC2(C(=O)O)C3CC4CC(C3)CC2C4)nn1-c1ccc(C(=O)N(C)CCCN(C)C(=O)[C@H](CCCCNC(=O)[C@H](CC(C)C)NC(=O)C2OC2C(=O)O)NC(=O)CN2CCN(CC(=O)[O-])CCN(CC(=O)[O-])CCN(CC(=O)[O-])CC2)cc1C(C)C.[177Lu+3] (mixture of isomers),"mouse HT-29 xenograft, large intestine","4 h post injection, biodistribution",0.68 %ID/g
O=C(NCC1OC2CCC=CCCC2O1)c1ccc([18F])nc1 (centres unmarked),"healthy female BALB/c nude mice, small intestine","intravenous, 7.4 MBq per mouse, 120 min",4.8 ± 0.2 %ID/g
COc1cccc(OC)c1-c1cc(C(=O)NC2(C(=O)O)C3CC4CC(C3)CC2C4)nn1-c1ccc(C(=O)N(C)CCOCCN(C)C(=O)[C@H](CCCCNC(=O)[C@H](CC(C)C)NC(=O)C2OC2C(=O)O)NC(=O)CN2CCN(CC(=O)[O-])CCN(CC(=O)[O-])CCN(CC(=O)[O-])CC2)cc1C(C)C.[177Lu+3] (mixture of isomers),"mouse, HT-29 xenograft, muscle",72 h post injection,0.06 %ID/g
O=C(O)CCCOc1ccc([18F])cc1-c1cc(-c2ccccc2C(F)(F)F)n(-c2ccccc2)n1,"mouse, blood","intravenous, dose not given, 360 min",0.19 ± 0.01 %ID/g
N#C[C@@H]1CC(F)(F)CN1C(=O)CNC(=O)c1ccnc2c(NC(=O)[C@@H](N)CCCCNC(=O)CCOCCOCCOCCOCCOCCOCCNC(=O)CN3CCN(CC(=O)[O-])CCN(CC(=O)[O-])CCN(CC(=O)[O-])CC3)cccc12.[177Lu+3],"mouse, U-87 MG tumour xenograft, spleen",1 h,0.22 ± 0.07 %ID/g
[123I]c1ccc2nc(-c3ccc(-n4ccnn4)nc3)cn2c1,"Wistar rat, brain","intravenous, 14 h",not detected
COc1cccc(OC)c1-c1cc(C(=O)NC2(C(=O)O)C3CC4CC(C3)CC2C4)nn1-c1ccc(C(=O)NCCNC(=O)[C@H](CCCCNC(=O)[C@H](CC(C)C)NC(=O)C2OC2C(=O)O)NC(=O)CN2CCN(CC(=O)[O-])CCN(CC(=O)[O-])CCN(CC(=O)[O-])CC2)cc1C(C)C.[177Lu+3] (mixture of isomers),"mouse, HT-29 xenograft, heart",72 h post injection,0.11 %ID/g
N#C[C@@H]1CC(F)(F)CN1C(=O)CNC(=O)c1ccnc2c(NC(=O)[C@H](CCCCNC(=O)CCOCCOCCOCCOCCOCCOCCNC(=O)CN3CCN(CC(=O)[O-])CCN(CC(=O)[O-])CCN(CC(=O)[O-])CC3)NC(=O)CCCc3ccc(I)cc3)cccc12.[177Lu+3],"mouse, U-87 MG tumour xenograft, brain",48 h,0.07 ± 0.08 %ID/g

# Repeated from above:
Structure (SMILES),system,conditions,tissue uptake
N#C[C@@H]1CCCN1C(=O)CNC(=O)c1ccnc2ccc(OCCCN3CCN(C(=O)CCc4ccc5c(c4)CN4CCN(Cc6cc(CCC(=O)O)ccc6O)CC(=O)[O][Al-]([18F])([O]C(=O)C4)[O]5)CC3)cc12 (some centres unmarked),"BALB/c nude mice, U-87 MG xenograft, liver","1 h, blocking, added: DOTA-FAPI-04 40 nmol/mouse co-injected",0.94 ± 0.59 %ID/g
COc1cccc(OC)c1-c1cc(C(=O)NC2(C(=O)O)C3CC4CC(C3)CC2C4)nn1-c1ccc(C(=O)N(C)CCCN(C)C(=O)[C@H](CCCCNC(=O)[C@H](CC(C)C)NC(=O)C2OC2C(=O)O)NC(=O)CN2CCN(CC(=O)[O-])CCN(CC(=O)[O-])CCN(CC(=O)[O-])CC2)cc1C(C)C.[177Lu+3] (mixture of isomers),"mouse HT-29 xenograft, large intestine","4 h post injection, biodistribution",0.68 %ID/g
